Experimental data pooled from the literature.
Numbered parts are unrelated; each lists some results of a single study.

Series 1
Target: Histone acetyltransferase KAT6A, winged helix 2, GST fusion (KAT6A, Homo sapiens, UniProt Q92794, residues 85-181)
Technique: protein binding microarray
Molecule type: double-stranded DNA, one strand shown
Medium: in vitro
Tested at: not given
Setting: 8-mer, flanks averaged, mean of 2 arrays, mostly near background
Relative to: not given
Reading: higher = stronger binding
Endpoint: E-score
Residues (chain): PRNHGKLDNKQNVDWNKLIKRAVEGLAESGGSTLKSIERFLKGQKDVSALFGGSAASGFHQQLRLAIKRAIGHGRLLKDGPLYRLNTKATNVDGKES
Strand = ACCAGGCG; value = 0.135
Strand = GCAGCATA; value = 0.102
Strand = TCCGCACA; value = -0.0581
Strand = AAGATGCA; value = 0.0509
Strand = GCAAGTTA; value = 0.0962
Strand = ATGGCGAG; value = 0.00394
Strand = AAGTATAC; value = 0.0753
Strand = AAAGGGGG; value = 0.0941
Strand = CGCAGGCC; value = 0.192
Strand = CCGGGACA; value = 0.0759
Strand = GACGAGCA; value = 0.11
Strand = ATTGCTAG; value = 0.0286
Strand = GCCTCCGA; value = 0.0516
Strand = AACCCTTC; value = 0.0556
Strand = AGACGCTC; value = -0.125
Strand = CGTGGCCC; value = -0.0119
Strand = CTCTCTTC; value = -0.0338
Strand = CGCGAAGA; value = 0.12
Strand = ACTACCGG; value = -0.197
Strand = CCGTATTA; value = -0.0164
Strand = AAATAAAA; value = 0.0566
Strand = TACAGATA; value = -0.068

Series 2
Target: Interferon regulatory factor 3, full length, phosphomimetic (IRF3, Homo sapiens, UniProt Q14653, residues 1-427, S386D/S396D/S398D/S402D/T404D/S405D)
Technique: protein-binding microarray
Molecule type: double-stranded DNA, one strand shown
Medium: in vitro
Tested at: 2540 nM top
Setting: 60-bp whole probe
With: salmon DNA 0.4 mg/ml
Relative to: random background probes
Reading: higher = stronger binding
Endpoint: fitted relative affinity
Constant ends, left off below: GCCTAGCAC … GTCTTGATTCGCTTGACGCTGCTG
Target sequence (chain): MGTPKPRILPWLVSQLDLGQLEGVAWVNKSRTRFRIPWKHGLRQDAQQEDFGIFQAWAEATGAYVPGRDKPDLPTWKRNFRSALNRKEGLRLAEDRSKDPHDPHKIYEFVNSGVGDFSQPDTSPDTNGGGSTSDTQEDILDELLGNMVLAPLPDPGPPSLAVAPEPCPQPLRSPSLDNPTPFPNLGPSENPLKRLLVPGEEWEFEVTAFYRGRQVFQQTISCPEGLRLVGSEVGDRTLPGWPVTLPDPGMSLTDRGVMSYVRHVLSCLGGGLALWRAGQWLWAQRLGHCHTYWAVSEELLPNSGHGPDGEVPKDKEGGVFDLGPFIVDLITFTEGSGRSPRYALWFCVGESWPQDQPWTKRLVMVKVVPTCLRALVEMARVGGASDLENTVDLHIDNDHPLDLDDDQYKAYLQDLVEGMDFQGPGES
Strand = TCAGTTTTCTCCATGGAACTGTGCTAG; value = 1.58 z-score
Strand = TTCAATTCCTGAAATCTCTTTGTGCTA; value = 0.0915 z-score
Strand = TCAGCTTTCCCGTCCAGACTGTGCTAG; value = 1.2 z-score
Strand = GACGATAGCAGTCTCGAGACGTGCTAG; value = -0.548 z-score
Strand = GACGATTTCAGGTTCGAGACGTGCTAG; value = 1.63 z-score
Strand = TCAGCTTTCTTTTTGCAACTGTGCTAG; value = 2.2 z-score
Strand = TCATGGCTGACTTTGGAACTGTGCTAG; value = -0.88 z-score
Strand = AGAAACTTGTGTTTGTCCCTGTGCTAG; value = 0.446 z-score
Strand = TGGGTGACTCTTACTCATTAGTGCTAG; value = -0.605 z-score
Strand = TTATGTTTCCTTTCCCTTTAGTGCTAG; value = 9.17 z-score
Strand = TTAGGTTTCGGACTCGGTTAGTGCTAG; value = 5.98 z-score
Strand = TTAGGACTGCTTTTCCTTTCGTGCTAG; value = 1.38 z-score
Strand = TTACCTTTTCACTTTACACAGTGCTAG; value = 7.53 z-score
Strand = GACGAACTGGACTATCGGGACGTGCTA; value = -0.239 z-score
Strand = TCATAGTTGTGTCTTGCACTGTGCTAG; value = -0.0301 z-score
Strand = TCTAATTAGAATTTAAAACAGTGCTAG; value = 0.665 z-score

Series 3
Target: Cyclic AMP-responsive element-binding protein 1 (CREB1, Homo sapiens, UniProt P16220, residues 1-327, full length assumed)
Sequence of UniProt P16220 (whole entry, looked up): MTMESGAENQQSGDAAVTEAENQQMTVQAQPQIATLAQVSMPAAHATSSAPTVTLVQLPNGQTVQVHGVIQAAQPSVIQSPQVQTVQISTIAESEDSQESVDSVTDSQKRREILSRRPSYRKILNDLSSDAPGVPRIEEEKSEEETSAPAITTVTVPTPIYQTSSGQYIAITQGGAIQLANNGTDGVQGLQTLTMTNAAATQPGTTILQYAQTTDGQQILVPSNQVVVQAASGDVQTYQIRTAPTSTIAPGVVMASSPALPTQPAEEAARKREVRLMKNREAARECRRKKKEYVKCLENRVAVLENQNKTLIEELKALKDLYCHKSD
Technique: protein-binding microarray
Molecule type: double-stranded DNA, one strand shown
Medium: in vitro
Tested at: not given
Setting: k-mer, scored over probes, only values ≥0.25
Reading: higher = stronger binding
Endpoint: E-score
Strand = TAGTACA; value = 0.252
Strand = TATTGCA; value = 0.255
Strand = ATATTCA; value = 0.253
Strand = TTACGAA; value = 0.257
Strand = ACGCAAT; value = 0.273
Strand = GTGACGA; value = 0.438
Strand = ATATAAA; value = 0.263
Strand = AATATAC; value = 0.334
Strand = AATACGT; value = 0.324
Strand = ACGTGAC; value = 0.331
Strand = AACGTGA; value = 0.275
Strand = GTAATAA; value = 0.325
Strand = ATGATTA; value = 0.26
Strand = CGTCATC; value = 0.488
Strand = TAACAGA; value = 0.285
Strand = CCGTCAC; value = 0.333
Strand = ACATACA; value = 0.291
Strand = ACTGTTA; value = 0.258
Strand = GACGTGA; value = 0.294

Series 4
Target: RNA binding protein fox-1 homolog 2, RRM domain, GST-SBP tag (RBFOX2, Homo sapiens, UniProt O43251-10, residues 100-194)
Technique: RNA Bind-n-Seq
Molecule type: RNA
Medium: in vitro
Tested at: 365 nM
Setting: natural RNA segment, single round, ends assumed
Relative to: no-protein control
Reading: higher = stronger binding
Endpoint: RBNS enrichment (R)
Construct (chain): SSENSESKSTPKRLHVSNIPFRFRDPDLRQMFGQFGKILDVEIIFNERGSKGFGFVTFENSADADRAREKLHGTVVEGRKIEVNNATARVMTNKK
Strand = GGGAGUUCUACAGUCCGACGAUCCGCCAUUAGACUGAAAAAACAAUGGCCUGAUGGUUGAAGUACAUUUUCAUUUGCAGAAUAUUAAAGCACUAAAAAAAAAAAAAACCUAUCUUGGAAGUUGUAUGAUUUGCUGGAAUUCUCGGGUGCCAA; value = 0.941
Strand = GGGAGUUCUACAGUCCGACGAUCUUUUAUCAGGCUUUCUCUGGGGGACAGCAGUCUCUGAGCACCAGGGAGCAGUUGCCCUCAGGCCUGUGCCCAGCAUGCCCUCCCCUUUUUAUACGAAUGUUUUCUACCAGUGGAAUUCUCGGGUGCCAA; value = 1.34
Strand = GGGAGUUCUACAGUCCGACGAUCCUUAACUUCCCUCUAUAGUCAGCAGAGGGGAUCCGAGGCCCAGUGCUGCCUGGAGAACUGAGAAUAGACCUCUGUUGUUGACCCUUCCUCAGGCUGGAGCCUGGGUGUUGUGGAAUUCUCGGGUGCCAA; value = 0.398
Strand = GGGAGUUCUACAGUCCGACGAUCUCUCCCUUUUAGCUAAAAUCUGAGAGUAGAAUAACCUGAUCUUUGAGGCCUCUUCCAAUGUUAGUCUUUUCUAAGGUAAUUUUUAGUAGGUCAUAAUUCAGUAUAUACUAUGGAAUUCUCGGGUGCCAA; value = 0.233
Strand = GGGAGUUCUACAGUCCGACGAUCUGCCCUGCUGCUGCUGCCGCCCCGCUACAGAGGCAAUGUGACCAGUCACAGGGACAGAUCACAUCUCCCCAGAGUGGCAACUCUGGUGAAACCUUUUCAGAAUCAUGGCAUGGAAUUCUCGGGUGCCAA; value = 0.618
Strand = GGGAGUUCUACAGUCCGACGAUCCUCUGUGUGUGUAUGUGUGUGUUUAUAUGUGUAUGUGUGUGACAGAAAAAUCUGUAGAGAAGAGGCACAUCUAUGGCUACUGUUCAAAUACAUAAAGAUAAAUUUAUUUUUGGAAUUCUCGGGUGCCAA; value = 1.55
Strand = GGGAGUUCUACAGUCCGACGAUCGUGUCUGUCAUGAAACCACUAACUGCAUUCCUGACUGAAGAGCCAUCUGUCAUUUAUUGGGGAAGGUCUUCAGUUGAGCUCUCAGCCUUAGGAAGGAAGCACGUGGAGGAUGGAAUUCUCGGGUGCCAA; value = 0.38
Strand = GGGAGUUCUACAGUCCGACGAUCAGCCUGUCCUCUCAGGAGCUACAAAAGGAAUGCAGAAUUCUGUCUCUGUCCCUCCCACCUUGCCUUAUCCUUCAUUGGUUUCUUCACACACUCAAUAAAGAAGCAUGCUUUGGAAUUCUCGGGUGCCAA; value = 4.05

Series 5
Target: Hepatocyte nuclear factor 3-alpha (Foxa1, Mus musculus, UniProt P35582, residues 1-468, full length assumed)
Sequence of UniProt P35582 (whole entry, looked up): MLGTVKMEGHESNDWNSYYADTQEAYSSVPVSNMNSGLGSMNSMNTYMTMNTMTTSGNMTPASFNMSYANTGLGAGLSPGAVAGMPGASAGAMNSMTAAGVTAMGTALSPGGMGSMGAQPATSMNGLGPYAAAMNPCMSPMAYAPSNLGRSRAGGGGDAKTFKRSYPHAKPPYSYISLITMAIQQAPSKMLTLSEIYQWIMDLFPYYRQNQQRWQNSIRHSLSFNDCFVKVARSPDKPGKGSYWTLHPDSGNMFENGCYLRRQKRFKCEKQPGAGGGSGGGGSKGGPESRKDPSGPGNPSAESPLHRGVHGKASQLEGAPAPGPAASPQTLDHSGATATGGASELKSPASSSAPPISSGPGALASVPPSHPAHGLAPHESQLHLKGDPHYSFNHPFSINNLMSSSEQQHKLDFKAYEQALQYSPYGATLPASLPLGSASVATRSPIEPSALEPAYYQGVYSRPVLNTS
Technique: EMSA with sequencing
Molecule type: double-stranded DNA, one strand shown
Medium: in vitro
Tested at: 10 and 20 nM
Setting: whole designed probe, mean of two concentrations, ends assumed
Relative to: negative control set to 0
Reading: higher = stronger binding
Endpoint: normalised bound fraction
Strand = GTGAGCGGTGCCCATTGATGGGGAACTGTATAAAGCAATTTATTTTGGAAGAGTAGGCTGCTCTTGAATTGTTTTAAGTAATGGTGATATTTTAGGAAATAAGTGGCAAAGTCACAAAGTAATCTGGTCCACAGTACAACCTTGTCATTTCAATACAGTAACCTTATCTAGATATCGTATTCCACTAGTATTGCCAAATACGATATTTGAGGAATATCATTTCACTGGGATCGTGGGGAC; value = -0.0159 ratio
Strand = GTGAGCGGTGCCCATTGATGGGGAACACAAAGTGCTCCAAATGTCCAGTTCCACATACTACAAAATCAGTGTTTGAAACCTGCTCTATGAAAGTGAATGTTCAACTCTGTGTCTTGAATGCAAACATCCCAAAGAAGTTTCTGATAATGCTTCTGTCTAGATTTTATATGAAGATATTCCCGTTTCCAGCGAAATCCACCAAGCTATCCAAATATCCACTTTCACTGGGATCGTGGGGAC; value = 0.0985 ratio
Strand = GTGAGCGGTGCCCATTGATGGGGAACTAAAAATGCAACTATAAGTTAAGTCTAACTAATAAAAGTGTTCATTAGATGAGAACGAGAACGTCTTATAGAAAAATAGATGGAAATACTATGTAATCTATGAGTTAAAATCGCAGATTGAAGTGAAAAAAATACTAGCTAGATGTAAGACATGAACCTAGAGCAAATGAAATGCAGAAAGTTAAAAAGAGAATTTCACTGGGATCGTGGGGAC; value = -0.0183 ratio
Strand = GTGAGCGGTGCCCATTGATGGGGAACTTTCCACCTAAAATATTGTCATTCAGAAGGGAATCACTTTAATATCCACAAAGGAAAATTAACATGTTATAATTTCAGCCACAATAATATCTATGTAATCTTGCATTTAATCCTACTAATTTACAATTAATTCAATTTTTCTTTTATATTCTGCATTCCACATAAAGCGATAACAGGAAAACATAAAATTCCATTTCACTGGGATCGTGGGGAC; value = -0.0491 ratio
Strand = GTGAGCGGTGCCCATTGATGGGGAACAAATGCAGCCTTTCCAGACCCATTGGCTCTGATATCTGGAGCGGGGATCCTGCCTTCTGAAAGGCAGAATTATTGGTGATTCCATGTGCTCTTGTTTACTTTGCTTACCAAGACCTATCAAGATTGAGTCATTTATGCTCTCATCTCTGAGAGACTCAGTGCTCTTCATGCAGTTGGACCCAACGCTTCATGCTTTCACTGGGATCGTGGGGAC; value = 0.484 ratio

For quick reference, copied from above (series 3):
Strand = ATATTCA; value = 0.253
Strand = TTACGAA; value = 0.257
Strand = ACGCAAT; value = 0.273
Strand = GTGACGA; value = 0.438
Strand = ATATAAA; value = 0.263
Strand = AATATAC; value = 0.334
Strand = AATACGT; value = 0.324
Strand = ACGTGAC; value = 0.331
Strand = AACGTGA; value = 0.275
Strand = GTAATAA; value = 0.325
Strand = ATGATTA; value = 0.26
Strand = CGTCATC; value = 0.488
